Results pooled from the literature.
Protocols differ between the studies behind these lines. “And” joins repeats or separate records; there may be more than shown.

| Structure (SMILES) | test | system | setting | how to read | measurement | value |
| --- | --- | --- | --- | --- | --- | --- |
| C=CCN1CCC23c4c5ccc(OC(=O)c6ccccc6)c4OC2C(=O)CCC3(O)C1C5 (stereo not shown) | – | human plasma | 24 h | – | remaining compound | 3.2% and 2.9% |
| C#Cc1c(F)ccc2cc(O)cc(-c3ncc4c(N5CC6CCC(C5)N6C(=O)OC(C)OC(=O)C5CCOC5)nc(OC[C@@]56CCCN5C[C@H](F)C6)nc4c3F)c12 (stereo partly shown) | – | simulated gastric fluid | 1 µM, 30 min, 37 °C | – | remaining prodrug | 108% |
| CSCC[C@@H]1NC(=O)[C@H](Cc2ccccc2)NC(=O)CNC(=O)[C@H](NC(=O)[C@@H](N)Cc2ccc(O)cc2)CSSC[C@H](C(=O)N[C@@H](Cc2c[nH]c3ccccc23)C(=O)NCc2cc(C(F)(F)F)cc(C(F)(F)F)c2)NC(=O)[C@@H]2CCCN2C1=O | – | rat plasma | 50 µg/mL, 24 h, 37 °C | – | remaining intact peptide | 70% |
| CSCC[C@H](NC(=O)[C@H](CCCNC(=N)N)NC(=O)[C@H](CCCNC(=N)N)NC(=O)[C@H](CCCCN)NC(=O)[C@H](C)NC(=O)[C@H](CCCNC(=N)N)NC(=O)CNC(=O)[C@@H](N)[C@@H](C)O)C(=O)N[C@@H](CCC(N)=O)C(=O)N[C@@H](Cc1ccc(O)cc1)C(=O)N[C@@H](CC(N)=O)C(=O)N[C@@H](CCCNC(=N)N)C(=O)N[C@@H](CCCNC(=N)N)C(N)=O | HPLC peak area | 50% human serum | 100 µM, 1 h, pH 7.4, 37 °C | relative to: 0 h | remaining peptide | 36.5% and 40% and 38.8% |
| C#Cc1c(F)ccc2cc(O)cc(-c3ncc4c(N5CC6CCC(C5)N6C(=O)OC(OC(=O)CCC)C5CCC5)nc(OC[C@@]56CCCN5C[C@H](F)C6)nc4c3F)c12 (stereo partly shown) | – | simulated gastric fluid | 1 µM, 30 min, 37 °C | – | remaining prodrug | 91.1% |
| CCCCCCCCCCCC(=O)C(C)C(=O)N1CCC[C@H]1C(=O)NC(C)(C)C(=O)NC(C)(C)C(=O)NC(C)(C)C(=O)N[C@](C)(CC)C(=O)NCCC(=O)N[C@@H](C)C(=O)N[C@](C)(CC)C(=O)N[C@@H](C)C(=O)N[C@@H](CC(C)C)C(=O)N[C@](C)(CC)C(=O)NCCC(=O)N[C@@H](C)C(=O)N[C@](C)(CC)C(=O)NCCC(=O)N[C@@H](C)C(=O)NC(C)(C)C(=O)NC(C)(C)C(=O)NC(C)(C)C(=O)N[C@@H](C)C(=O)N[C@@H](CC(=O)O)C(=O)O (stereo partly shown) | LC-MS | 50% pooled human serum | 40 µM, 540 min, pH 7.5, 37 °C | relative to: 0 h | remaining intact peptide | 31.2% and 27.1% and 32.8% |
| C[C@H](NCc1ccc(-c2ccc(C(F)(F)F)cc2)cc1)C(N)=O | – | human plasma | 1 µM, 120 min | – | remaining compound | 98.3% |
| Cc1nnc(-c2ccc(CC(=O)NCCCC[C@H](NC(=O)c3ccc(OCc4ccc(B(O)O)cc4)c(-c4nc5ccccc5c(=O)[nH]4)c3)C(=O)NCC(=O)NCC(=O)NCC(=O)N[C@@H](Cc3ccccc3)C(=O)N[C@@H](Cc3ccccc3)C(=O)O)cc2)nn1 | UPLC-MS/MS | human serum | 100 µM, 3.5 h, 37 °C | – | remaining compound | 81.5% and 82.2% |
| C=CCN1CCC23c4c5ccc(OC(=O)c6ccc(NC(=O)OC(C)(C)C)cc6)c4OC2C(=O)CCC3(O)C1C5 (stereo not shown) | – | rat plasma | 1 h, added: loperamide 100 µM | – | remaining compound | 54.3% and 54.8% and 63.4% |
| CC[C@H](C)[C@H](NC(=O)[C@@H](NC(=O)[C@H](CCCCN)NC(=O)[C@@H](N)[C@@H](C)O)C(C)C)C(=O)N[C@@H](CC(C)C)C(=O)N[C@@H](Cc1c[nH]cn1)C(N)=O | LC-MS | pronase digest | 200 µM, 1 h, pH 7.5, 37 °C, added: pronase 2.5 µg/mL | – | remaining intact peptide | 21% |
